Experimental data of several laboratories.
Each line is one published result; not all experiments were run side by side. Several values in a cell are separate wells, animals, samples, runs or records. ± gives the spread as reported.
UniProt P29323, sequence (whole entry, looked up): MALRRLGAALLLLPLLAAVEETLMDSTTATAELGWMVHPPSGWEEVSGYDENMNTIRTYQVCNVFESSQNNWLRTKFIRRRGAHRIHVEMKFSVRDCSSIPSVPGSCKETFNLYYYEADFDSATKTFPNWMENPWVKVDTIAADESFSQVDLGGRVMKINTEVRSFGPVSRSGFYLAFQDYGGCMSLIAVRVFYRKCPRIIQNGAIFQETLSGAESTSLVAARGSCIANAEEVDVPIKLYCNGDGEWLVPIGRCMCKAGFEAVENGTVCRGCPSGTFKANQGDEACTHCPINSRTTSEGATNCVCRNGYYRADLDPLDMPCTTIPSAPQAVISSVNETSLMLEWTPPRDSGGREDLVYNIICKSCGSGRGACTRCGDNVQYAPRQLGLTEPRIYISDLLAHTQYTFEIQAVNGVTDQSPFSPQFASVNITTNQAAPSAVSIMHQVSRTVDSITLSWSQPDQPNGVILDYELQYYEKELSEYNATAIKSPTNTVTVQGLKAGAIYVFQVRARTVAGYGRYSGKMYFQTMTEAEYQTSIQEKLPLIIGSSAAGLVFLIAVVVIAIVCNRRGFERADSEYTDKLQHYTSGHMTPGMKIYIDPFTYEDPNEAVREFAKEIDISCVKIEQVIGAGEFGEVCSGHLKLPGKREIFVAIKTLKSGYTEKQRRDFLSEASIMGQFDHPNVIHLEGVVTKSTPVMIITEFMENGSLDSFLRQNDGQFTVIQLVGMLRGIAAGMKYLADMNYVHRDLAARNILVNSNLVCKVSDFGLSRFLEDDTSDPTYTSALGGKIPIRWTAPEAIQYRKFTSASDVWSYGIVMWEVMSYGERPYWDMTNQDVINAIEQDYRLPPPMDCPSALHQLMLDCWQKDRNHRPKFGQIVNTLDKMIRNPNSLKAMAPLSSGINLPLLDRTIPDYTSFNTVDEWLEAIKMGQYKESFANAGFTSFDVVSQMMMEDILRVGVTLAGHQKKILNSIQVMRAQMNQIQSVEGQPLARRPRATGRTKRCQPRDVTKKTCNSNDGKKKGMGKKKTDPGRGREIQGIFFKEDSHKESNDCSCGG
UniProt Q05513, sequence (whole entry, looked up): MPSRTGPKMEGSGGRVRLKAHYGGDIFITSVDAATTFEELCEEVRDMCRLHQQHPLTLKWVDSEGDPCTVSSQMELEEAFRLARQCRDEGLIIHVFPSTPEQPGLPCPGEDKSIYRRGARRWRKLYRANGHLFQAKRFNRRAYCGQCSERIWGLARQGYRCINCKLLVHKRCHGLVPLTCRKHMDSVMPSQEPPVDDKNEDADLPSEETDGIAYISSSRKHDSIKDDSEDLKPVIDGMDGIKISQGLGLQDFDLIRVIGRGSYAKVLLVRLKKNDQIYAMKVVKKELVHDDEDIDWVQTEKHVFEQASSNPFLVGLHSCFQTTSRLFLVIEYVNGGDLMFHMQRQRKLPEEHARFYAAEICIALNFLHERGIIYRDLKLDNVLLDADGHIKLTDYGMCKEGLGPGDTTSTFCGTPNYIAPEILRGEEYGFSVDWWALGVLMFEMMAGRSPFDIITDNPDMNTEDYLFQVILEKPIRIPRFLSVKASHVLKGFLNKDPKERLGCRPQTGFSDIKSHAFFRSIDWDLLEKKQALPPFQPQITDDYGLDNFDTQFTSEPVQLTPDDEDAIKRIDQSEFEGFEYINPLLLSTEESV
UniProt P22455, sequence (whole entry, looked up): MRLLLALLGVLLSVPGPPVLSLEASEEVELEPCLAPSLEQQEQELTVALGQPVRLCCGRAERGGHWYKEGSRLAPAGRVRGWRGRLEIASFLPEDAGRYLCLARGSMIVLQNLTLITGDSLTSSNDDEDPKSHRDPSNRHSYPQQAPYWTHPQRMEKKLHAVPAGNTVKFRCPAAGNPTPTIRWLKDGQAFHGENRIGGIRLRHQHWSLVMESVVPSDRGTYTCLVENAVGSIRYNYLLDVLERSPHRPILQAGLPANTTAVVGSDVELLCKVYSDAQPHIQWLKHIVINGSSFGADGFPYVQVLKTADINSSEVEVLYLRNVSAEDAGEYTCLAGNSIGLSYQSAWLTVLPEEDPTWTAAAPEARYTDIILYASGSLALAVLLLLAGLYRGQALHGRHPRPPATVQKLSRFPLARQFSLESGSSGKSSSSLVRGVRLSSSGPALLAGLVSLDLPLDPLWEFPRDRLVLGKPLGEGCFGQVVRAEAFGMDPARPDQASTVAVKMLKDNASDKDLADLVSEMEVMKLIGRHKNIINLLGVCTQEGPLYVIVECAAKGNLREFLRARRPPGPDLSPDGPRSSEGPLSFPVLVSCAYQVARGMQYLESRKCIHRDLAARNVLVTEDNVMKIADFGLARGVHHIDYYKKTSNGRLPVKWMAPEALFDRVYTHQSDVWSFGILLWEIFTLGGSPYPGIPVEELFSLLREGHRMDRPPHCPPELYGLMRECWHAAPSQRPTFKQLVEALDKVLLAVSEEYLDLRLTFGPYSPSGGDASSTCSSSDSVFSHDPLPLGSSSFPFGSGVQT

CC(C)C12OC1C1OC13C1(C)CCC4=C(COC4=O)C1CC1OC13C2OC(=O)CCCOC1OC(CO)C(O)C(O)C1O (stereo not shown)
IC50 (SCC-25; cell growth or viability, XTT; 47 h): 1.63 µM

Cc1cc(C(=O)Nc2nc3cccc(C)c3n2[C@H]2CCCCN(C(=O)/C=C/CN(C)C)C2)ccn1
cell cycle distribution (Trypanosoma brucei; propidium iodide flow cytometry, measured: G2/M phase; bloodstream parental line; concentration not given): 44.9% and 46.6% and 45.4%

CC(C)[C@H](NC(=O)[C@H](CCCNC(=N)N)NC(=O)[C@@H]1CCCN1C(=O)[C@@H](NC(=O)[C@H](C)NC(=O)[C@H](Cc1ccc(O)cc1)NC(=O)[C@H](CCC(N)=O)NC(=O)[C@H](CCCCN)NC(=O)[C@H](CCCNC(=N)N)NC(=O)[C@@H]1CCCN1C(=O)[C@H](CCC(=O)O)NC(=O)[C@@H](NC(=O)[C@H](C)N)[C@@H](C)O)[C@@H](C)O)C(=O)N[C@@H](Cc1ccccc1)C(=O)N[C@@H](Cc1c[nH]c2ccccc12)C(=O)N[C@H](C(=O)N[C@@H](CC(=O)O)C(=O)N[C@@H](C)C(=O)N1CCC[C@H]1C(=O)NCC(=O)NCCOCCOCCOCCOCCOCCOCCOCCOCCOCCOCCOCCOCCC(=O)N[C@@H](CS)C(N)=O)[C@@H](C)O
selectivity ratio (PC-3 prostate cancer; phage binding; relative to: targeting over control phage): 6.6 ± 0.87

O=C(C[Se]C(=O)c1cc2ccccc2o1)Nc1cccc(C(F)(F)F)c1
CC50 (NCI60 melanoma subpanel; cytotoxicity, inhibitor; five-dose): 6.79 µM

CCCCCCCCCCCCCC(=O)N[C@@H](CCCNC(=N)N)C(=O)N[C@@H](Cc1c[nH]c2ccccc12)C(=O)N[C@@H](CCCCN)C(=O)N[C@H](C(=O)N[C@@H](Cc1ccccc1)C(=O)N[C@@H](CCCCN)C(=O)N[C@@H](CCCCN)C(=O)N[C@H](C(=O)N[C@@H](CCC(=O)O)C(=O)N[C@@H](CCCCN)C(=O)N[C@H](C(=O)NCC(=O)N[C@@H](CCC(N)=O)C(=O)N[C@@H](CC(N)=O)C(=O)N[C@H](C(=O)N[C@@H](CCCNC(=N)N)C(=O)N[C@@H](CC(=O)O)C(=O)NCC(=O)N[C@H](C(=O)N[C@H](C(=O)N[C@@H](CCCCN)C(=O)N[C@@H](C)C(=O)NCC(=O)N1CCC[C@H]1C(=O)N[C@@H](C)C(=O)N[C@H](C(=O)N[C@@H](C)C(=O)N[C@H](C(=O)N[C@H](C(=O)NCC(=O)N[C@@H](CCC(N)=O)C(=O)N[C@@H](C)C(=O)N[C@@H](C)C(=O)N[C@H](C(=O)N[C@H](C(N)=O)[C@@H](C)CC)[C@@H](C)O)C(C)C)C(C)C)C(C)C)C(C)C)[C@@H](C)CC)[C@@H](C)CC)C(C)C)[C@@H](C)CC)[C@@H](C)CC
dead cells (MX1; trypan blue exclusion; 6 µM, 24 h): > 80%

CN(C)[C@H]1C[C@@]23CC[C@@]4(O2)C(=CC[C@]2(C)[C@@H](c5ccc6ccncc6c5)CC[C@H]24)C=C3[C@@H](O)[C@@H]1O
inhibition (EPHB2 (Homo sapiens, UniProt P29323); ATP probe labelling, inhibitor, KiNativ profiling; 1 µM): 1.6%

CC(C)C[C@@H](/C=C/[C@H](Cc1ccccc1)C(=O)N1CCC[C@H]1C(=O)N[C@H](C(=O)N[C@@H](CCCNC(=O)OCc1ccccc1)C(=O)NC1CC(C)(C)N([O])C(C)(C)C1)C(C)C)NC(=O)OC(C)(C)C
EC50 (PANC-1; protection from ferroptosis, PrestoBlue; 24 h, together with: erastin 10 µM): 89 nM

O=C1NC2(CC2)COc2ncc(F)cc2[C@H]2COCCN2c2ccn3ncc1c3n2
pancreatic amylase activity (Sprague-Dawley rat, male, serum; oral, 5 mg/kg/day, 4 weeks daily, end of treatment): 2090 ± 418 U/L

COc1ccccc1-c1ccncc1C(=O)Nc1nnc(OCc2ccc(Cl)cc2)s1
colony survival (DLD-1 BRCA2-/-; 8 µM, single replicate; relative to: untreated): 9.09% and 8.62% and 8.45%

CC(C)(C)C(=O)OCOP(=O)(OCOC(=O)C(C)(C)C)C1CCCN(O)C1=O (stereo not shown)
CC50 (KM12): > 100 µM

CC1OC2OC3C4=C(OC3(C)C12O)C(=O)c1c(O)cccc1C4=O (stereo not shown)
selectivity index (A549 and Vero; MTT; relative to: CC50 Vero over EC50 A549): 2.35

COc1ccccc1-c1n[nH]c2nc(N[C@H]3CC[C@H](NS(=O)(=O)CC(C)C)CC3)ncc12
relative abundance (bead binding, competition bead pull-down, measured: LINJ.26.0840; Leishmania donovani extract; 10 µM; relative to: vehicle): 1.14

C[C@@H](Cc1ccc(O)c(O)c1)[C@@H](C)Cc1ccc(O)c(O)c1
IL-6 mRNA level (THP-1, PMA-differentiated; 10 µM, 24 h, together with: LPS 1 µg/mL; relative to: LPS model): decreased

CSCC[C@H](NC(=O)[C@@H](NC(=O)[C@H](CCC(N)=O)NC(=O)[C@H](CO)NC(=O)[C@@H](N)C(C)C)[C@@H](C)O)C(=O)N[C@@H](CCCNC(=N)N)C(=O)N[C@@H](CCC(N)=O)C(=O)N[C@H](C(=O)N[C@@H](C)C(=O)N[C@H](C(=O)N1CCC[C@H]1C(=O)N[C@@H](CC(C)C)C(=O)N[C@@H](CC(C)C)C(=O)N[C@@H](Cc1c[nH]c2ccccc12)C(=O)N[C@@H](Cc1ccccc1)C(=O)N[C@@H](Cc1c[nH]c2ccccc12)C(=O)N[C@H](C(=O)NCC(=O)N[C@@H](CO)C(=O)N[C@@H](CC(C)C)C(=O)NCCOCCOCCOCCOCCOCCOCCOCCOCCOCCOCCOCCOCCC(=O)N[C@@H](CS)C(N)=O)[C@@H](C)O)C(C)C)[C@@H](C)O
selectivity ratio (H2122 lung adenocarcinoma; cell binding, phage binding, measured: output/input phage; 10 min, 37 °C; relative to: control phage): 1.7 ± 0.39

CC(C)CC(O)(CC(C)C)c1cn(C(=O)N2CCCC2)nn1
protein level (mouse T-cells; SILAC proteomics, measured: SKP1A; 1 nM, 6 h, unit not given; relative to: DMSO): 1.04

CC(C)C[C@H](NC(=O)[C@H](CC(=O)O)NC(=O)CNC(=O)[C@@H](N)CCCNC(=N)N)C(=O)N[C@@H](C)C(=O)N[C@H](C(=O)N[C@@H](CC(C)C)C(=O)N[C@@H](CCCNC(=N)N)C(=O)N[C@@H](CCC(N)=O)C(=O)N[C@@H](CC(C)C)C(=O)N[C@@H](C)C(=O)N[C@@H](CCC(N)=O)C(=O)N[C@@H](CCC(=O)O)C(=O)N[C@@H](CC(=O)O)C(=O)NCC(=O)N[C@H](C(=O)N[C@H](C(=O)NCC(=O)N[C@H](C(=O)N[C@@H](CCCNC(=N)N)C(=O)NCCOCCOCCOCCOCCOCCOCCOCCOCCOCCOCCOCCOCCC(=O)N[C@@H](CS)C(N)=O)C(C)C)C(C)C)C(C)C)[C@@H](C)O
selectivity ratio (Calu-3; phage binding; relative to: targeting over control phage): 34 ± 13

O=C1NC(=O)c2c1c1cc(F)c[n+]3c1c1c2c2cc(O)ccc2[n]1[Ru-4]312([N]=C=S)[S+]3CC[S+]1CC[S+]2CC3 (stereo not shown)
remaining activity (PRKCZ (Homo sapiens, UniProt Q05513); enzyme activity; 100 nM, human enzyme, together with: 10 µM ATP; relative to: untreated): 88%

O=C(O)c1ccc(-c2nc(-c3ccccc3Cl)c3sccn23)cc1
CD235a-positive cells (K562; erythroid differentiation, flow cytometry; 0.01 mM, 24 h): 94.6% and 94.8% and 94.4%

O=C(C[Se]C(=O)C12CC3CC(CC(C3)C1)C2)Nc1cccc(C(F)(F)F)c1
CC50 (NCI60 melanoma subpanel; cytotoxicity, inhibitor; five-dose): 28.6 µM

CCN(CC)CCO.O=C(O)C(Cl)Cl
herbicidal inhibition (Eclipta prostrata; 15 mg/mL, 21 days, post-emergence, greenhouse): 56%

O=C(C[Se]C(=O)c1ccc2ccccc2n1)Nc1cccc(C(F)(F)F)c1
CC50 (NCI60 melanoma subpanel; cytotoxicity, inhibitor; five-dose): 8.22 µM

Cc1cc(Oc2nc(N3CC[C@@H](c4ccncc4)C3)ncc2F)[nH]n1
IC50 (Calu-6; cell proliferation; lung cancer): 93.3 µM

COc1ccccc1-c1n[nH]c2nc(NC3CCN(C(=O)Cc4ccc(F)cc4F)CC3)ncc12
relative abundance (bead binding, competition bead pull-down, measured: LINJ.32.1060; Leishmania donovani extract; 10 µM; relative to: vehicle): 0.89

NC(=O)N/N=C/c1ccc(OCc2cccc(F)c2)cc1
catalase activity (OD450) (IMR-32; 200 µg/mL, 24 h; higher = more activity): 0.045 a.u.

CS(C)(=O)=Nc1ccc(-c2ccc(-c3nc4cc(O[C@@H]5CO[C@H]6[C@@H]5OC[C@H]6O)[nH]c4cc3F)cc2)cc1
inhibition (FGFR4 (Homo sapiens, UniProt P22455); enzyme activity, inhibitor; 10 µM): -14%

For quick reference, copied from above:
CS(C)(=O)=Nc1ccc(-c2ccc(-c3nc4cc(O[C@@H]5CO[C@H]6[C@@H]5OC[C@H]6O)[nH]c4cc3F)cc2)cc1
inhibition (FGFR4 (Homo sapiens, UniProt P22455); enzyme activity, inhibitor; 10 µM): -14%

CN(C)[C@H]1C[C@@]23CC[C@@]4(O2)C(=CC[C@]2(C)[C@@H](c5ccc6ccncc6c5)CC[C@H]24)C=C3[C@@H](O)[C@@H]1O
inhibition (EPHB2 (Homo sapiens, UniProt P29323); ATP probe labelling, inhibitor, KiNativ profiling; 1 µM): 1.6%

CC(C)C12OC1C1OC13C1(C)CCC4=C(COC4=O)C1CC1OC13C2OC(=O)CCCOC1OC(CO)C(O)C(O)C1O (stereo not shown)
IC50 (SCC-25; cell growth or viability, XTT; 47 h): 1.63 µM
